Measured values gathered from unrelated publications.
A part holds a random share of what one study measured. Positions count from the first letter of the parent shown.

Study 1 — target: CREB3L3, bZIP domain (human); method: DHFR protein complementation; medium: yeast; baseline: wild-type JUN-FOS pair; reading: higher = stronger binding
Notes: single substitutions, most at no-binding floor
Parent: JUN, bZIP domain (human); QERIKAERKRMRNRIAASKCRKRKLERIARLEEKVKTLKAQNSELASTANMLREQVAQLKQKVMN; partner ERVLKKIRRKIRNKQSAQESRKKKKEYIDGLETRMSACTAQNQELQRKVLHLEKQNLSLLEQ
Substitution	binding fitness [natural log]
S43E	-1.42
T48D	-1.49
Q58S	-1.41
E44R	-1.56
K39T	-1.51
E54Y	-1.55
Q41F	-1.48
E44H	-1.46
A46L	-1.41
S43L	-1.47
M51W	-1.37
A46F	-1.56
A57G	-1.41
L31G	-1.52
A40Y	-1.49
E32W	-1.44
M51G	-1.53
E33A	-1.52
M51A	-1.47
E32K	-1.61
V56G	-1.52
E54N	-1.42
L38H	-1.47
K39L	-1.34

Study 2 — method: universal PBM; form: double-stranded DNA, one strand shown; medium: in vitro; tested at: 600 nM; reading: higher = stronger binding
Target: Sal-like protein 4, full length isoform A (SALL4, Homo sapiens, UniProt Q9UJQ4, residues 1-1053)
UniProt Q9UJQ4, sequence (whole entry, looked up): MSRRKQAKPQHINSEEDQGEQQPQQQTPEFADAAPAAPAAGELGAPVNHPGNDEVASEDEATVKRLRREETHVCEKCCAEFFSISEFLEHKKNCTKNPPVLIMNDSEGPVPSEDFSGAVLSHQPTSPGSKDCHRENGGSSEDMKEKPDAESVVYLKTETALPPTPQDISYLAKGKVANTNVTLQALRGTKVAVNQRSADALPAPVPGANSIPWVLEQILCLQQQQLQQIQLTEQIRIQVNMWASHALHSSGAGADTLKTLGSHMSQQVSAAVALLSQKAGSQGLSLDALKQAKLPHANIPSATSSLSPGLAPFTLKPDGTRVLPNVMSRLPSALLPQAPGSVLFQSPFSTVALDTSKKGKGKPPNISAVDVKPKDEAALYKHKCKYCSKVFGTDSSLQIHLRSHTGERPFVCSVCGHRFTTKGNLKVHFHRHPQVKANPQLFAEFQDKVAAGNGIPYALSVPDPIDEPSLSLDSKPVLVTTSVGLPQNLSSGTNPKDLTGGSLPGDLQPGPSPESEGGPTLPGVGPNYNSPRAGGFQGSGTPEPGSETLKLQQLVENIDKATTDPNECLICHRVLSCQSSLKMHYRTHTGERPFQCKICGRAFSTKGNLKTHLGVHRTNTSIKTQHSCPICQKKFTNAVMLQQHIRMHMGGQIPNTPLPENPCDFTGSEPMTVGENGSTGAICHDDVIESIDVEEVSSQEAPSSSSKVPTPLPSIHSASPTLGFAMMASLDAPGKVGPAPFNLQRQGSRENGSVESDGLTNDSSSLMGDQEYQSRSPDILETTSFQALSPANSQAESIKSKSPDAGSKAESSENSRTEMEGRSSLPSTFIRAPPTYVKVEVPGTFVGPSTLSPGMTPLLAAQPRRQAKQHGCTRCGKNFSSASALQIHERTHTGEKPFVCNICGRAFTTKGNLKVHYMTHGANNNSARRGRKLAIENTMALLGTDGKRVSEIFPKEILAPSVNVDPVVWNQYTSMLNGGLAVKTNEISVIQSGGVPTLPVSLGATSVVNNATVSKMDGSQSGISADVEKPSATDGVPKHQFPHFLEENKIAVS
Notes: 8-mer, flanks averaged, mean of replicates
Oligonucleotide	E-score
ACACAAGG	-0.106
AGTCATAT	0.347
AGGCGTGG	-0.373
ATCCACAC	-0.137
ATACGTCG	0.077
ATCCCTTA	0.0936
AACTCCGG	-0.181
CGGTGCGA	-0.298
ATTCCTTG	0.0578
TTCAGAAA	0.0837
CCGCCCGA	-0.279
AAATTATT	0.468
GCACGAGA	-0.131
CATTTTGA	0.182
ACTCCGAG	-0.0774
ATTGGGAG	0.0248
GTCAGCGA	-0.282
CATTTACG	0.0654
AGACGTCA	-0.101
GAGTCGAC	-0.124
CACTTACA	0.173
CGACAGCC	-0.0973

Study 3 — method: protein binding microarray; form: double-stranded DNA, one strand shown; medium: in vitro; tested at: not given; baseline: not given; reading: higher = stronger binding
Target: Histone acetyltransferase KAT6A, winged helix 1, GST fusion (KAT6A, Homo sapiens, UniProt Q92794, residues 1-85)
Notes: 8-mer, flanks averaged, mean of 2 arrays, mostly near background
Residues (chain): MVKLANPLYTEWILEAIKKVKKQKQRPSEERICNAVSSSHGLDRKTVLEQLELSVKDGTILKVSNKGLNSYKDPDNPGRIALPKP
Oligonucleotide	E-score
CGCTAACA	0.052
ACGATCGA	-0.113
CAAAGATG	-0.114
AGTAAGAC	0.00365
CTACAGTC	-0.113
GAGCATCA	-0.165
CCACATAC	-0.187
CGTTTCCA	-0.163
GTCGTTGA	-0.0947
CCTAACAC	-0.0678
AAATATTG	-0.0299
GACGACTA	-0.0421
ATGTGTAA	-0.137
CAAGTCAG	-0.223
CCTGCCCA	-0.234
CCTGCTGA	-0.188
GCGCGACA	0.36
CCCTTCTC	-0.0709
AACGGTAT	0.0219
AGACACAG	-0.208
GCTGCTGA	-0.0814
AGAAGGGG	-0.216
TATTAGCA	-0.171
ACCACGGG	0.275
CATAGTTC	-0.0696

Study 4 — method: RNA Bind-n-Seq; form: RNA; medium: in vitro; tested at: 365 nM; baseline: no-protein control; reading: higher = stronger binding
Target: RNA binding protein fox-1 homolog 2, RRM domain, GST-SBP tag (RBFOX2, Homo sapiens, UniProt O43251-10, residues 100-194)
Notes: natural RNA segment, single round, ends assumed
Residues (chain): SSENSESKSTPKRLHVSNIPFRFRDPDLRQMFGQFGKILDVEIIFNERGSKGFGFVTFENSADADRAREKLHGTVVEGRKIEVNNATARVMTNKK
Oligonucleotide	RBNS enrichment (R)
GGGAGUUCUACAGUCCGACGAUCUGUUAUAGGGUCCCCUCCCUGACGCCUAAAAUAUUUGUAACUACACCUAAAAGGGUUUUGCUUCGGGAUUUUUGUUUGUUCGGUUUUUUUGUUUUUUUAAAGAAAAAGAAUGGAAUUCUCGGGUGCCAA	0.779
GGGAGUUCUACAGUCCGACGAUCCACAGCAGUGGGUACAGCCUGUGUGGGCGCAGGUGGUCCCUUUUCUGUGCCCUGACAAGUAGACUGGCACACUCCUGCCCCACACUCAGCCUUCUGCAGCAGGUAGGCUUUGGAAUUCUCGGGUGCCAA	0.379
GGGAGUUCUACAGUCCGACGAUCUCUCCUUAUCCACAUCCCUGCAGAAGGUGGGCCCUAUUCUCAGAAGAGUCCUGGCUGCUGUUGCCAUCUGAAUGCGCCCUUCCCUUUCAGGUUGACCAGCAGUGGCCUUAUGGAAUUCUCGGGUGCCAA	0.43
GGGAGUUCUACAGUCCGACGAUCCCCAGAAGCCUGGGCUUAGGGUGGAGAUGCCGCCUACACACGAUCCUGGCCCUCCACCUGCCUCCAGGCCACGAAAUGGGAAUUCCAGCACUAAGCCAGGCACCGGGCAGUGGAAUUCUCGGGUGCCAA	0.301
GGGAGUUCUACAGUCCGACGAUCGGCUUGGAAUUCAACUCAGUUUAGCACCAAAGCCAGUGCUAUUAAGACCUGAAGUUCAACAGUGGAUUCCUUACCAAAUAGUUUUUAAAGUAUGCUCUAAGGAACAAUGUUGGAAUUCUCGGGUGCCAA	0.339
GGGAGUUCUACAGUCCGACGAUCGGAAGACCCAGAGAGGCCAAGAUCCCAUCCUUAGCCAUAGCGAGCGGUGGUGGUGGAUAGCAUCACAAGAAACGAGCCUGAAAAUCAGGUCCAGCCGGUCCAAGCACAUGUGGAAUUCUCGGGUGCCAA	0.308
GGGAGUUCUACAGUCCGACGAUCCUUCUCAGUUAUAAACAUGCUGGCCAGAUCUCUUAGCCUGCAAAGAGAACUUUCCCCAGUCACCAUAGACCAUUCUCCUUCCUGAAGGCUUGGGGCAGACCAUUCGUUUAUGGAAUUCUCGGGUGCCAA	0.349
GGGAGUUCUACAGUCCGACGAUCAGCAAGUGGUGCUUCCUUCUCAGCACGUCUCUAGGAAGCAUGGACACCCGAGUGUGGCUUUUCUCAAAGAAAGGUGAAGAAGGGGCCUCAGUUCUUACAGUGGGGACCACUGGAAUUCUCGGGUGCCAA	9.23
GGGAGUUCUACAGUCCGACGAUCACAGGGAUUAGGGAAAUGGAGCUCUGGCUUUGAAGUUAUUUGUGAGUUUAGCAACCUUCCAGUUACCUGCAGAGUUCUGGGUGCACAGCCACCCCUCAUAAGAGCCCUGUUGGAAUUCUCGGGUGCCAA	0.896
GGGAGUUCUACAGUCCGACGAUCGAUCUCAGCCUAGCGAUGCCGCUGGCCAGACCGUGACCAUGCUGCCAGUGUGCUCGCCAUGAGCUGGGUCAGGGCUGGGGAGUUGUGCAGGCUGGGGUGACCCUUCCCCCUGGAAUUCUCGGGUGCCAA	0.429
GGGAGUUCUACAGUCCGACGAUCGGCUUGGCUGCAGGACAGAGACUUGACUCCAUCCCAGCUCUGGUCUUGGCUGGGAUGGCACUACCCUGUGAGCCAAACACUUUAGGUGUAAGUAGGUACACUUGUGACGUUGGAAUUCUCGGGUGCCAA	0.805
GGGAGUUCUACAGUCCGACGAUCCUUCAUAUCCACCAAGCAGACAUAACCUAAGGAAUGUUAGUCCACUGAGCAGUUAAAAAACACUGACAUAUUGCUUCCCUCAUGAAGUAAACGAUACAGGGAACUGGUUGUGGAAUUCUCGGGUGCCAA	0.448

Study 5 — method: protein-binding microarray; form: double-stranded DNA, one strand shown; medium: in vitro; tested at: 2200 nM top; notes: 60-bp whole probe; with: salmon DNA 0.4 mg/ml; baseline: random background probes; reading: higher = stronger binding; shared flanks, not repeated: GCCTAGCAC … GTCTTGATTCGCTTGACGCTGCTG
Target: Interferon regulatory factor 7, full length, phosphomimetic (IRF7, Homo sapiens, UniProt Q92985, residues 1-503, S471D/S472D/S475D/S476D/S477D/S483D/S484D/S487D)
UniProt Q92985, sequence (whole entry, unmodified, looked up): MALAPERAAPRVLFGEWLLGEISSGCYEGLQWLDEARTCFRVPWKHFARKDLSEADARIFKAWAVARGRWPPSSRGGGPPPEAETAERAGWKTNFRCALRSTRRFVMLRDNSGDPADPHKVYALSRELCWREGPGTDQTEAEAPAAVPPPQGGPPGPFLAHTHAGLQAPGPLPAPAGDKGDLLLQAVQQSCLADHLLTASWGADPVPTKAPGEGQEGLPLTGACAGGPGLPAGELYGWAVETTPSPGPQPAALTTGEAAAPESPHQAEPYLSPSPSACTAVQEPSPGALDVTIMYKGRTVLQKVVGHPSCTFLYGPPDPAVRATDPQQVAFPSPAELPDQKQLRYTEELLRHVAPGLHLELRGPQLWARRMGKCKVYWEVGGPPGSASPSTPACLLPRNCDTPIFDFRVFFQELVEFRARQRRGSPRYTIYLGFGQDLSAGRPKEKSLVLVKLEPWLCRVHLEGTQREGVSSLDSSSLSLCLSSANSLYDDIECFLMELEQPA
Oligonucleotide	fitted relative affinity
GACGGGTTCGGTATCGGGACGTGCTAG	0.58 z-score
GTAGAACTGGGGTATCGATTAGTGCTA	0.155 z-score
GACGGACTGCACACTGGGGACGTGCTA	-0.566 z-score
TTAGACCTGGGGTTTCGATTAGTGCTA	2.09 z-score
TTAGGTATCCTTATCCATTAGTGCTAG	0.731 z-score
TTAGGACTGGACTATCGGTGAGTGCTA	-0.549 z-score
GACGTTTCCAGTTTCGAGACGTGCTAG	5.45 z-score
TCAGCTCTGCAGCTCAGACTGTGCTAG	0.072 z-score
TTAGTTATCAGACTGGATTAGTGCTAG	0.279 z-score
GACGATTTAAGACTGGAGACGTGCTAG	-0.118 z-score
TTAGGACTGATTATCCTTTAGTGCTAG	-0.135 z-score
AGTCATCTCCAAAGTCAGCCAGTGCTA	0.249 z-score
GACGATTACAGTATCGAGACGTGCTAG	0.325 z-score
CATCATTTTTCCCTCTGGAAGTGCTAG	2.27 z-score
TCATGTTTGGTCCTGAAACTGTGCTAG	1.59 z-score
AACGGTATCGGGTATCGGGACGTGCTA	0.252 z-score
TTAGATCTCAGAATGGATTAGTGCTAG	-0.42 z-score
TCCACTTTCTTTTGCTTGTTGTGCTAG	4.4 z-score
CTAGGTTTCGACTATCGGTTAGTGCTA	3.84 z-score
TTAGGACTGGGATTTCGGTTAGTGCTA	1.48 z-score
TTAGGTTGCCTTTCCCTTTAGTGCTAG	1.92 z-score
GACTGACTGCTTCTCCTGACGTGCTAG	0.964 z-score
TTCCAACTCTGTTTTCGCTTGTGCTAG	3.98 z-score
TCAAAATTCTAATTAGAACTGTGCTAG	-0.844 z-score

Excerpt of the above (study 3):
Oligonucleotide	E-score
CGCTAACA	0.052
ACGATCGA	-0.113
CAAAGATG	-0.114
AGTAAGAC	0.00365
CTACAGTC	-0.113
GAGCATCA	-0.165
CCACATAC	-0.187
CGTTTCCA	-0.163
GTCGTTGA	-0.0947
CCTAACAC	-0.0678
AAATATTG	-0.0299
GACGACTA	-0.0421
ATGTGTAA	-0.137
CAAGTCAG	-0.223
